Measured values pooled from the literature.
Protocols differ between the studies behind these lines. ± gives the spread as reported. ≈ marks a conversion by molar mass, not a printed value.

With `CCCCCCOc1c(OC)cc(NC(C)CCCNC(=O)C(N)CCCN)c2nc(C(C)(C)C)ccc12` (stereo not drawn) the IC50 was > 20 µg/mL (Staphylococcus aureus; bacterial growth; MRSA ATCC 33591).
With `CP(=O)(O)CCC(N)C(=O)O` (stereo not drawn) the herbicidal activity was 100% (Amaranthus palmeri; 125 g/ha, 13 days, AMAPA, post-emergence spray; reference: untreated (0%), complete kill (100%)).
`CCCCCCCCOc1c(OC)cc(NC(C)CCCNC(=O)C(N)Cc2cc3ccccc3[nH]2)c2nc(C(C)(C)C)ccc12` (stereo not drawn) gave an MBC of > 20 µg/mL (Staphylococcus aureus; microbial killing; ATCC33591 MRSA; drug-resistant strain).
`insulin human` — result for “HIV DNA reduction”: > 90% (EcoHIV; qPCR; infected mice, brain; intranasal, dose not given, 1 month after infection).
`CC(=O)OC[C@]12Oc3ccc(-c4ccc(O)c5c4O[C@@]4(COC(C)=O)C(=C(O)C[C@@H](C)[C@H]4OC(C)=O)C5=O)c(O)c3C(=O)C1=C(O)C[C@@H](C)[C@H]2OC(C)=O` gave a mycelial growth of 1.7 ± 0.3 cm (Phyllosticta citricarpa; PDA plates; 10000 µg/mL, 504 h).
`CC(C)C[C@H](NC(=O)[C@H](C)NC(=O)[C@H](CC(C)C)NC(=O)[C@H](CCCCN)NC(=O)[C@H](CC(C)C)NC(=O)[C@H](CCCCN)NC(=O)[C@@H](N)CCCCN)C(=O)N[C@@H](C)C(=O)N[C@@H](CCCCN)C(=O)N[C@@H](CC(C)C)C(=O)N[C@@H](C)C(=O)N[C@@H](CC(C)C)C(=O)N[C@@H](CC(C)C)C(=O)N[C@@H](Cc1c[nH]c2ccccc12)C(=O)N[C@@H](CCCCN)C(=O)N[C@@H](C)C(=O)N[C@@H](CC(C)C)C(=O)N[C@@H](C)C(=O)N[C@@H](CC(C)C)C(=O)N[C@@H](CCCCN)C(=O)N[C@@H](CC(C)C)C(=O)N[C@@H](CCCCN)C(=O)N[C@@H](CCCCN)C(=O)N[C@@H](C)C(N)=O` has an MIC50 of 2.23 ± 0.41 µM (≈ 5.96 µg/mL) (Pseudomonas aeruginosa; broth microdilution; PAO1; overnight, 37 °C).
For `LSTFFRLFNRSFTQGRRRRSVQWCA`, biofilm growth read “no effect” (Streptococcus sanguis; OD600; peptide, ATCC 49295, 4 h single-species biofilm; 128 µg/ml, 5 min exposure, OD600 read over 5 h).
`COc1cc(NC(C)CCCN)c2nc(C(C)(C)C)ccc2c1Oc1ccc(Cl)c(Cl)c1` (stereo not drawn) has an MBC of 10 µg/mL (≈ 21 µM) (Staphylococcus aureus; microbial killing; ATCC33591 MRSA; drug-resistant strain).
For `CC(=NNC(=O)CN1c2c(-c3ccccc3)n[nH]c2-c2ccccc2S1(=O)=O)c1ccc2c(c1)OCCO2`, the EC90 was > 100 µM (HIV-1; viral replication; PBMC).
For `CCCCCn1c(=O)[nH]c2cc(C(=O)NCCN3CCCCC3C)ccc2c1=O` (stereo not drawn), the maximal response was -67.6% (Hepatitis C virus; HCV infection, Gaussia luciferase reporter; Huh7.5.1 reporter cells; reference: 10 µM cyclosporin A, DMSO, negative means inhibition).
`TDVDHVFLRF-OH (C-acid)` has an inhibition of 30% (Drosophila melanogaster; heart rate; peptide, adult heart; 40 nL injected, 1 µM, 10 min; reference: DMS).
Under “complete motility inhibition concentration”, `O=C(Nc1ccc(Cl)cc1)N1CCCC1c1nc(-c2ccccc2)no1` (stereo not drawn) is recorded as 50 to 100 µM (Brugia malayi; adult female and male).
`O=C(CN1c2c(n[nH]c2-c2cccc(Cl)c2)-c2ccccc2S1(=O)=O)NN=Cc1ccc(Br)cc1` gave an EC90 of 22.2 µM (HIV-1; viral replication; PBMC).
The mortality of `TRTRVSRLY` is reported as 26.3% (rhesus rotavirus; peptide, newborn BALB/c mice, RRV biliary atresia; intraperitoneal, 500 µg at birth and days 1 and 2, 21 days).
`OC[C@@H]1[C@@H](O)[C@H](O)[C@@H](O)CN1CCCCCCOc1cc(F)ccc1F` has an EC90 of 16 ± 7.9 µM (bovine viral diarrhea virus; MDBK; 22 h).

Repeated from above:
`TDVDHVFLRF-OH (C-acid)` has an inhibition of 30% (Drosophila melanogaster; heart rate; peptide, adult heart; 40 nL injected, 1 µM, 10 min; reference: DMS).
Under “complete motility inhibition concentration”, `O=C(Nc1ccc(Cl)cc1)N1CCCC1c1nc(-c2ccccc2)no1` (stereo not drawn) is recorded as 50 to 100 µM (Brugia malayi; adult female and male).
